Experimental data pooled from the literature.
Parts stem from different laboratories: compare values within a part only. Changes are numbered by the printed parent chain.

Block 1 — technique: protein-binding microarray; form: double-stranded DNA, one strand shown; matrix: in vitro; tested at: 2540 nM top; setting: 60-bp whole probe; added: salmon DNA 0.4 mg/ml; reference: random background probes; reading: higher = stronger binding; quantity: fitted relative affinity; constant ends, left off below: GCCTAGCAC … GTCTTGATTCGCTTGACGCTGCTG
Target: Interferon regulatory factor 3, full length, phosphomimetic (IRF3, Homo sapiens, UniProt Q14653, residues 1-427, S386D/S396D/S398D/S402D/T404D/S405D)
Construct (chain): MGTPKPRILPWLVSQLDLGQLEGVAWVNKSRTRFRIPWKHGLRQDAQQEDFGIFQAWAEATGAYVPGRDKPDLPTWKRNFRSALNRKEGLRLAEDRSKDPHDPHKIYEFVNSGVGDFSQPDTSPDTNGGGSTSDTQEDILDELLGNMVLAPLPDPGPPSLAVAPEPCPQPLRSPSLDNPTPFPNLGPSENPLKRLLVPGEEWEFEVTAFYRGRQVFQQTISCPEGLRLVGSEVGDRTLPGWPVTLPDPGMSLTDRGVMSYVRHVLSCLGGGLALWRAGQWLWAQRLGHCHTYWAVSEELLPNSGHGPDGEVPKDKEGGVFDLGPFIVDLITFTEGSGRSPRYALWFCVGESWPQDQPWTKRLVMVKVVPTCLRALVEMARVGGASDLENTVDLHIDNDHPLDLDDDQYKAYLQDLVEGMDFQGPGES
TTATGTATCGGGACTGGGTTAGTGCTA: 1.32 z-score
TTAGGTATCGACTATCGTTTAGTGCTA: 0.436 z-score
TTATATTTCGGGACTGGATTAGTGCTA: 1.08 z-score
GGATATATATCATTTAATTAGTGCTAG: 0.701 z-score
GACGGTTTAGGGACTGGGGACGTGCTA: 0.117 z-score
AAACAAATAAGCCTTACTTGGTGCTAG: 0.285 z-score
GACGGTCTCGGTTTCCGGACGTGCTAG: 3.99 z-score
GAAGGACTGGGTATCGGGACGTGCTAG: -0.283 z-score
GAGGCTTTTTTTTTTTTTTTGTGCTAG: -0.249 z-score
TTAGGTATTCTACTGCTTTAGTGCTAG: -0.247 z-score
GGCGGACTGGACACTGGGGACGTGCTA: -0.965 z-score
TTAGGACTGGGGACTGGGGTAGTGCTA: -1.01 z-score
TTAGGTATCGATACTGGGTTAGTGCTA: 1.81 z-score
GACGGTATCTACTTTCGGGACGTGCTA: 1.4 z-score
GACGGGATCGGACTGGGGACGTGCTAG: -0.263 z-score
TTAGGTTTCCTCATCCTTTAGTGCTAG: 4.05 z-score
TTAGATTCTAGTTTCGATTAGTGCTAG: 3.83 z-score
TTAGATATCAGTCTAGATTAGTGCTAG: 0.478 z-score
TTAGAACTGCTTCTCCTTTAGTGCTAG: -0.0843 z-score
TTAGGTATCGACTTTCGGCTAGTGCTA: 0.917 z-score

Block 2 — technique: RNA Bind-n-Seq; form: RNA; matrix: in vitro; tested at: not given; setting: RNA with constant flanks, ends assumed; reference: input RNA pool; reading: higher = stronger binding; quantity: bound/input enrichment
Target: RING finger protein unkempt homolog, zinc fingers 1-6, GST-SBP tag (UNK, Homo sapiens, UniProt Q9C0B0, residues 30-357)
Constant ends, left off below: GGGAGUUCUACAGUCCGACGAUC … CAACAGAGGAUUGAGCAUCA
Construct (chain): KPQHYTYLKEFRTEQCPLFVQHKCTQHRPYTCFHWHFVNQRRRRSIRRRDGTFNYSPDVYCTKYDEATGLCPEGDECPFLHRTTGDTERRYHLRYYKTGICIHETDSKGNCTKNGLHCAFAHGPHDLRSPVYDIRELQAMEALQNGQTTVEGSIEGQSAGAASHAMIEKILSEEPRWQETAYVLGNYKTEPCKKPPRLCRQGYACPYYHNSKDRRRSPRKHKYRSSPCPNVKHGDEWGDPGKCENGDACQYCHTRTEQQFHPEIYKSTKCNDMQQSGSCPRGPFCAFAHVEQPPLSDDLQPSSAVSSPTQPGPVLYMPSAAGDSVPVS
UGGGCGAACCACGUCUUCCUCGGGUGCCGAUACCCUCAAAAAGUUAUGGAUAAAAUACUCCGUAUGGCUGAAGGCAUCAAAGUGACAGAUGCUCCAACCUAUACAACAAGAGAUGAACUG: 0.0554 ratio
AGUACGCGAGAGCGGCUUCUGUCUGCGCUGGAAGAUCUGGAGGUCUUGUCGAGGGAACUCACCGAAAUGCUUGCAAUUUCAAGAAAUCAGAAGCUAUUACAGCUGGAAGAGGAAAACCAG: 0.0898 ratio
AAUUCAUCUAAAGAUGUCUCUGGUGAUUUUUAUAUGUUCCGCUAUAUAAUUGAUGCUUUACCGUUUUAUCAUAAUCCAACAACUUCAGUUAUAUUUAAUUAUUGUUAAGGAGUUUAAGAC: 0.396 ratio
AAGCAACACUAAGCAUUCAUAAGUUAACCCAUGGUAAAGAGUGUUUUUCUGAAACUUUUUUUCCGUAAGAUGGUUUUUCAGCAAAUGGCAUUCCCAAGAUAAAGCUGUUGUGCUUUAACU: 0.15 ratio
AUUUUUGACCUGUACAGAAGAAGAUGGGGUGCUGGUUUACCACCAUGCCCAGGAUGUCAUUUCCGAAGUCAUUUACACUGACCCUGUGGAUCUUUCUGUGGGCACCGUGGCAGAAAUCAC: 0.125 ratio
ACCACCCUCUCUGGGGUUCAAGAAGAGUCCGCUCUUUGCUAUCUUCUCCAGGUUGAUGAGUUCCGGUUUUUGUUGGACUGUGGCUGGGAUGAACACUUCUCUGUGGACAUUAUUGAUUCC: 0.0408 ratio

Block 3 — technique: RNA Bind-n-Seq; form: RNA; matrix: in vitro; tested at: 365 nM; reference: no-protein control; reading: higher = stronger binding; quantity: RBNS enrichment (R)
Target: RNA binding protein fox-1 homolog 2, RRM domain, GST-SBP tag (RBFOX2, Homo sapiens, UniProt O43251-10, residues 100-194)
Setting: natural RNA segment, single round, ends assumed
Constant ends, left off below: GGGAGUUCUACAGUCCGACGAUC … UGGAAUUCUCGGGUGCCAA
Construct (chain): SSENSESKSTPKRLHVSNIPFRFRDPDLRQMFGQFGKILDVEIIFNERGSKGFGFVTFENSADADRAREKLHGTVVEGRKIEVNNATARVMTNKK
AAGAAAUGUUAAGACUCGUGAAAAGAAUUACUAUAAGGUACUGUGAAAUAACUGCGAUUUUGUGAGCAAAACAUACUUGGAAAUGCUGAUUGAUUUUUAUGCUUGUUAGU: 1.11
AAUGGCUAACUGAUGAAUUAGAAGCCAUCUGACAGCAGGCCACUAGUGACAGUUUCUUUUGUGUUCCUAUGGAAACAUUUUAUACUGUACAUGCUAUGCUGAAGACAUUC: 0.217
GAUUGUCCAGUUCUGGUAAACAGUCUUCCAGUCAUCUCACAACCAUUAUUACAACCAUGUACAAAGGGACUCCACUCCACUGUCCCUGUACAAGGACUUUUGACAGUUUA: 0.444
UUCAGUUUGUAGGAGGCAGCCUGUGUGAGUGACAGACAGGAAACAGAAGAGUAGAACAUACUGGCAGAGUUUUACAUUAGGAUAUUGCUGUCUUUUCUACGAUAGAGAAU: 1.05
GUUCUAAGACUAAUAUUUUUAGAUCUUUUUACUUCACCUCAUACUUAUCACCAAUGUAUAUCUCCAUUUAUUCAAUAACUUACUGGGGUAAAAUAACAGCAAUAAACCUA: 0.406
AUUUACAGUGCUUGCUCUGAGCAGCUCAGAAGACAGUAGAGAAUGCGAGAGGACCUUCUGACGGUGAUUGUCCAACAUGCAUCUGGCCCGCUCUGCGGCUCCUCCCACCU: 0.387
GUCUUUAACCACUUCUGAAUCUCAUAUGGCCUGUUGCUCUUGGUCUUGCUAGACUCCCGUUUGUUCUAAGAGUCAGGCUUAUGUAUAGCAGCUUCUAGCUGGUUCUCUAU: 0.651
UCCAGACCAGGCUGGCCGACAUGGUGAAACCCCAUCUCUACUAAAAAAUAUAAAAAUUAGCCGGGCUUUGUGGCAUGUGCCUGUAAUCCCAGCUAUUUGGCAGGCUGAGG: 0.773
UAUGUGUAUGUACACAUGUGUAUGUACACACACACACACACCUGCCAUACACUUUAGAAGAACGCUUCUCUUCUAUUCCAAUAAAAAGUCCUUUUAGCAAUGCAACAUAU: 0.503
UUUGUAUAGCUUCAAGAACUUUAUACCUGUACAGCUCUAACAUGACACUGCUCCACUCAGUAUUCAUCCUGUUGACGCACACAGGUGAGCACUUUCCUAACUACUGCAGA: 0.688
UGUUACACUGGAGCCUGCUGCAGGCCAGCUCUCUGCUCUUCACUGCUUCCCUUGACUGGGGAGACUGGAAGUCCUUACACUGGAGUUGCUGGGCCAACUGGUCACCCUCA: 0.355
UGUGUUGAUGUUAAAGUCAAAGGCUGCAGUAUGUCUAUAUUCUUGCUGUACUCAUUGGUAGUUUCAGUAUAUGUAAUGUGAGUUUAAAUAGUGAAAUUGUAUCUCAUAUU: 0.69

Block 4 — target: CCNB3, cyclin fold, Cln2 fusion (human); technique: yeast growth competition, sequencing; matrix: yeast; setting: weak parent motif; reference: not given; reading: higher = stronger binding; quantity: normalised enrichment score
Starting sequence: CDC25A docking peptide (human); PPHRRRLLFACSP; partner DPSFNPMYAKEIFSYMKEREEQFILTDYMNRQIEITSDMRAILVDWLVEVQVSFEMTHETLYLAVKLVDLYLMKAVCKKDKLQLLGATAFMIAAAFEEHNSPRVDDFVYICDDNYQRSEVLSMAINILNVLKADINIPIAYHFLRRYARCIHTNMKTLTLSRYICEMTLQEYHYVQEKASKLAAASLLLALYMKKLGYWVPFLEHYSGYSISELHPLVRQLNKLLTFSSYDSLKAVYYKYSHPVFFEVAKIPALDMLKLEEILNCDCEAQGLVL
PPMRRRLLFACSP [H3M]: 0.498
PPHRRRLLFQCSP [A10Q]: 0.234
PPHMRRLLFACSP [R4M]: 0.0532
PPHRRRLLFACSL [P13L]: -0.0151
PPHRMRLLFACSP [R5M]: 0.485
PPHRDRLLFACSP [R5D]: -0.0663
PPHRRRLLFACSN [P13N]: 0.514
PPHRRRLLFICSP [A10I]: -0.375
PPHRRRLLFAKSP [C11K]: -0.299
PPPRRRLLFACSP [H3P]: 0.107
PPHRRRLLFAPSP [C11P]: 0.318
PPHRRMLLFACSP [R6M]: 0.414
PPHRRRLVFACSP [L8V]: 0.179
PPHRCRLLFACSP [R5C]: 0.141
PPHRRILLFACSP [R6I]: 0.113
PPHRRGLLFACSP [R6G]: 0.0843
PWHRRRLLFACSP [P2W]: 0.158
PPHRRRILFACSP [L7I]: 0.396
PPHRRRLLFAISP [C11I]: 0.317
PAHRRRLLFACSP [P2A]: 0.208
PPHRIRLLFACSP [R5I]: 0.457
PPHRRRLEFACSP [L8E]: -0.0222
PPQRRRLLFACSP [H3Q]: 0.257
PPHRRRLLFACSV [P13V]: 0.131
PDHRRRLLFACSP [P2D]: 0.025

Some of these lines once more (block 4):
PPHRRRLVFACSP [L8V]: 0.179
PPHRCRLLFACSP [R5C]: 0.141
PPHRRILLFACSP [R6I]: 0.113
PPHRRGLLFACSP [R6G]: 0.0843
PWHRRRLLFACSP [P2W]: 0.158
